{"data": "Published values collected from several papers", "note": "Numbered parts are unrelated; each lists some results of a single study. “And” joins repeats or separate records; there may be more than shown."}
{"data": "Study 1", "species": "human", "medium": "microsomes or S9", "tested at": "2 µM", "time": "0.5 h"}
{"SMILES": "COC(=O)c1c(CC(=O)N2CCCC2C2CCCCC2)[nH]c(C(C)=O)c1C (centres unmarked)", "remaining compound": "0.263%"}
{"SMILES": "CC(C)c1cc(C(C)C)c(S(=O)(=O)NCc2ccc(S(N)(=O)=O)cc2)c(C(C)C)c1", "remaining compound": "1.18%"}
{"SMILES": "COc1cccc(Nc2ccc(-n3ccnc3)nn2)c1", "remaining compound": "95.1%"}
{"SMILES": "CC(C)COc1cc(=O)n2c(c1C(=O)NC1CCCCC1)CCCCC2", "remaining compound": "17.1%"}
{"SMILES": "Cc1c(C)c(C)c(S(=O)(=O)N(C)c2cnccn2)c(C)c1C", "remaining compound": "0.5%"}
{"SMILES": "Nc1n[nH]c2nc(N3CCCC3)c3c(c12)CCN(C1CCCCC1)C3", "remaining compound": "66.7%"}
{"SMILES": "CN(Cc1cc2cc(F)ccc2[nH]1)C(=O)CC1C(=O)NCCN1CC(C)(C)C (centres unmarked)", "remaining compound": "0.749%"}
{"SMILES": "Cc1n[nH]c(NC(=O)CCc2ncc(C(C)(C)C)o2)c1Cl", "remaining compound": "75.6%"}
{"SMILES": "Cc1cc(C)n(Cc2nnc(Nc3ccccc3)o2)n1", "remaining compound": "99.2%"}
{"SMILES": "COc1ccc(OC)c(C(c2c(O)cc(C)n(C)c2=O)c2c(O)cc(C)n(C)c2=O)c1", "remaining compound": "89.7%"}
{"SMILES": "COC(=O)CC(c1cc2ccccc2[nH]c1=O)c1c(Cc2ccccc2)[nH][nH]c1=O (centres unmarked)", "remaining compound": "89.2%"}
{"SMILES": "CC(C)C(C(=O)NC1CCN(C(=O)NC(C)(C)C)CC1)N(C)C (centres unmarked)", "remaining compound": "69.3%"}
{"data": "Study 2", "target": "Aurora kinase B (AURKB, Homo sapiens, UniProt Q96GD4)", "effect on": "enzyme activity", "mode": "inhibitor", "tested at": "0.5 µM", "baseline": "control", "sequence of UniProt Q96GD4 (whole entry, looked up)": "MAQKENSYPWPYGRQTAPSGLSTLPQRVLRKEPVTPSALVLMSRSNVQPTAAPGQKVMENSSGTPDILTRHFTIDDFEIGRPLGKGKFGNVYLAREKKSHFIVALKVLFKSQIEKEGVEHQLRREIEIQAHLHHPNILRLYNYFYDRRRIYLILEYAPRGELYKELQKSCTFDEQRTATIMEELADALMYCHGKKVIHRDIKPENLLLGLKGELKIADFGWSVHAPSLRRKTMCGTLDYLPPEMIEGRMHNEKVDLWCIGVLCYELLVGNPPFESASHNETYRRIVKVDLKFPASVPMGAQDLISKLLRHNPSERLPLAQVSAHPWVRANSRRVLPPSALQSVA"}
{"SMILES": "O=C(c1cc2cc(O)ccc2[nH]1)c1cc2cc(O)ccc2[nH]1", "remaining activity [%]": 24.2}
{"SMILES": "COc1cccc(-c2cc(=O)c3ccccc3o2)c1N", "remaining activity [%]": 102}
{"SMILES": "O=c1cc(N2CCOCC2)oc2c(-c3ccccc3)cccc12", "remaining activity [%]": 99.6}
{"SMILES": "O=C1Nc2ccc(Br)cc2/C1=C/c1cc2c([nH]1)CCCC2", "remaining activity [%]": 56.7}
{"SMILES": "COc1ccc(COc2ccc(Cc3cnc(N)nc3N)cc2OC)cc1", "remaining activity [%]": 104}
{"SMILES": "CCCCc1c(-c2ccc(OC)cc2)[nH]c2nccnc12", "remaining activity [%]": 64.5}
{"SMILES": "CCCNC(=O)Nc1ccc(Oc2ncnc3cc(OC)c(OC)cc23)cc1Cl", "remaining activity [%]": 37}
{"SMILES": "O=C1Cc2c([nH]c3ccc(Br)cc23)-c2ccccc2N1", "remaining activity [%]": 84.3}
{"SMILES": "O=C1NC(=O)c2c1c1c3ccccc3[nH]c1n1cncc21", "remaining activity [%]": 25.2}
{"SMILES": "Cc1ccc(S(=O)(=O)/C=C/C#N)cc1", "remaining activity [%]": 92.3}
{"SMILES": "c1ccc2c(-c3ccncc3)c[nH]c2c1", "remaining activity [%]": 95.9}
{"SMILES": "N#Cc1cnc2cnc(NCc3cccnc3)cc2c1Nc1ccc(F)c(Cl)c1", "remaining activity [%]": 90.1}
{"SMILES": "O=C1Nc2ccccc2/C1=C\\c1c(Cl)[nH]c2ccccc12", "remaining activity [%]": 97.9}
{"SMILES": "O=C1NC(=O)c2c1c1c3ccccc3[nH]c1c1[nH]c3cc(Br)ccc3c21", "remaining activity [%]": 44.3}
{"SMILES": "COc1ccc2c(c1)c(C1=C(c3c[nH]c4ccccc34)C(=O)NC1=O)cn2CCCN(C)C", "remaining activity [%]": 88.5}
{"SMILES": "O=Nc1c(-c2c(O)[nH]c3cc(Br)ccc23)[nH]c2ccccc12", "remaining activity [%]": 39.1}
{"SMILES": "Oc1cccc(-c2nc(N3CCOCC3)c3oc4ncccc4c3n2)c1", "remaining activity [%]": 99.4}
{"SMILES": "c1ccc(-c2n[nH]c3c2oc2ccccc23)cc1", "remaining activity [%]": 50.8}
{"SMILES": "CN1CCN(c2ccc3nc(-c4c(N)c5c(F)cccc5[nH]c4=O)[nH]c3c2)CC1", "remaining activity [%]": 27}
{"data": "Study 3", "organism": "Sarcocystis neurona", "effect on": "parasite activity", "tested at": "10 µM", "time": "96 h"}
{"Compound": "OCCN1CCN(CCCN2c3ccccc3Sc3ccc(Cl)cc32)CC1", "activity class": "active"}
{"Compound": "CCC(=O)NS(=O)(=O)c1ccc(-c2c(-c3ccccc3)noc2C)cc1", "activity class": "inactive"}
{"Compound": "O=C1CN2Cc3c(ccc(Cl)c3Cl)N=C2N1", "activity class": "inactive"}
{"Compound": "CN(C)c1nc(N(C)C)nc(N(C)C)n1", "activity class": "inactive"}
{"Compound": "COc1ccccc1N1CCN(CC(O)COc2cccc3ccccc23)CC1 (centres unmarked)", "activity class": "inactive"}
{"Compound": "c1ccc2c(CC3=NCCN3)cccc2c1", "activity class": "inactive"}
{"Compound": "O=C(O)Cc1ccccc1Nc1c(Cl)cccc1Cl", "activity class": "inactive"}
{"Compound": "Nc1nc(=O)c2nc(CNc3ccc(C(=O)N[C@@H](CCC(=O)O)C(=O)O)cc3)cnc2[nH]1", "activity class": "inactive"}
{"Compound": "CCCSc1ccc2nc(NC(=O)OC)[nH]c2c1", "activity class": "inactive"}
{"Compound": "C[C@@](Cc1ccc(O)c(O)c1)(NN)C(=O)O", "activity class": "inactive"}
{"Compound": "CS(=O)(=O)c1ccc(-c2cc(Br)sc2-c2ccc(F)cc2)cc1", "activity class": "inactive"}
{"Compound": "CC(C)c1ccc2oc3nc(N)c(C(=O)O)cc3c(=O)c2c1", "activity class": "inactive"}
{"Compound": "COc1ccccc1OCC(O)COC(N)=O (centres unmarked)", "activity class": "inactive"}
{"Compound": "CN(C)C(=O)C(CCN1CCC(O)(c2ccc(Cl)cc2)CC1)(c1ccccc1)c1ccccc1", "activity class": "inactive"}
{"Compound": "CN(C)CCN(Cc1ccccc1)c1ccccn1", "activity class": "inactive"}
{"Compound": "C[C@H]1[C@H](OC(=O)CCC(=O)O)O[C@@H]2O[C@@]3(C)CC[C@H]4[C@H](C)CC[C@@H]1[C@@]24OO3", "activity class": "active"}
{"data": "Study 4", "cell line": "normal-adjacent epithelium patient-derived organoids sample G", "technique": "CellTiter-Glo", "tested at": "1 µM", "baseline": "DMSO"}
{"SMILES": "CC(=O)NCC(=O)N1[C@@H]2CC[C@H]1c1ccc(Nc3ncc(C(F)(F)F)c(NC4CCC4)n3)cc12", "viability": "10.1% and 13.1%"}
{"SMILES": "CCNC(=O)c1cc2c(N3CCOC[C@H]3C)ccnc2n1C", "viability": "126% and 111%"}
{"SMILES": "Cn1cc(-c2ccc3occ(-c4cccc(-c5ccncc5)c4)c3n2)cn1", "viability": "119%"}
{"SMILES": "CCOc1cn(-c2ccc(F)cc2C)nc1C(=O)Nc1ccc(Oc2ccnc3cc(OC)c(OC)cc23)c(F)c1", "viability": "13.4% and 28%"}
{"SMILES": "COCc1nc2cnc3cc(-c4c(C)noc4C)c(OC[C@H]4CCNC4)cc3c2n1[C@H](C)c1ccccc1", "viability": "68.6%"}
{"SMILES": "O=C(Nc1cccnn1)N1CC(CC=Cc2cncc(Oc3ccc(C(F)(F)F)cn3)n2)C1", "viability": "114%"}
{"SMILES": "COc1ccc2c(O[C@@H]3C[C@H]4C(=O)N[C@]5(C(=O)O)CC5/C=C\\CCCCC[C@H](NC(=O)OC5CCCC5)C(=O)N4C3)cc(-c3csc(NC(=O)C(C)C)n3)nc2c1C (some centres unmarked)", "viability": "113% and 107%"}
{"SMILES": "Cc1cc2c(-c3ccco3)cnc(N[C@@H]3CCN(C)C[C@H]3C(=O)NC3CCCCC3)c2[nH]c1=O", "viability": "70.4%"}
{"SMILES": "Cl.Cl.NC1(c2ccc(-c3nc4ccn5c(=O)[nH]nc5c4cc3-c3ccccc3)cc2)CCC1", "viability": "88.7% and 88.2%"}
{"SMILES": "CCC(=N\\O)/C(C)=C/c1ccc(F)cc1", "viability": "101% and 108%"}
{"SMILES": "COc1cccc2c1C(=O)c1c(O)c3c(c(O)c1C2=O)C[C@@](O)(C(=O)CO)C[C@@H]3O[C@H]1C[C@H](N)[C@H](O)[C@H](C)O1", "viability": "2.6%"}
{"SMILES": "CCC(=NO)C(C)=Cc1ccc(F)c(C)c1", "viability": "113% and 122%"}
{"SMILES": "O=C(NCc1ccccc1)c1ccc(S(=O)(=O)NCc2ccccc2)cc1", "viability": "93.1% and 78.9%"}
{"SMILES": "COc1cccc(NC(=O)c2nc3scc(CN(C)Cc4ccccc4)c3c(=O)[nH]2)c1", "viability": "148% and 123%"}
{"SMILES": "COc1cc(Nc2nccc(-c3cnn4nc(OC)ccc34)n2)cc(C(F)(F)F)c1", "viability": "60.3%"}
{"note": "Some of these lines once more (study 4):"}
{"SMILES": "CC(=O)NCC(=O)N1[C@@H]2CC[C@H]1c1ccc(Nc3ncc(C(F)(F)F)c(NC4CCC4)n3)cc12", "viability": "10.1% and 13.1%"}
{"SMILES": "CCNC(=O)c1cc2c(N3CCOC[C@H]3C)ccnc2n1C", "viability": "126% and 111%"}
{"SMILES": "Cn1cc(-c2ccc3occ(-c4cccc(-c5ccncc5)c4)c3n2)cn1", "viability": "119%"}
{"SMILES": "CCOc1cn(-c2ccc(F)cc2C)nc1C(=O)Nc1ccc(Oc2ccnc3cc(OC)c(OC)cc23)c(F)c1", "viability": "13.4% and 28%"}
{"SMILES": "COCc1nc2cnc3cc(-c4c(C)noc4C)c(OC[C@H]4CCNC4)cc3c2n1[C@H](C)c1ccccc1", "viability": "68.6%"}
{"SMILES": "O=C(Nc1cccnn1)N1CC(CC=Cc2cncc(Oc3ccc(C(F)(F)F)cn3)n2)C1", "viability": "114%"}
{"SMILES": "COc1ccc2c(O[C@@H]3C[C@H]4C(=O)N[C@]5(C(=O)O)CC5/C=C\\CCCCC[C@H](NC(=O)OC5CCCC5)C(=O)N4C3)cc(-c3csc(NC(=O)C(C)C)n3)nc2c1C (some centres unmarked)", "viability": "113% and 107%"}
{"SMILES": "Cc1cc2c(-c3ccco3)cnc(N[C@@H]3CCN(C)C[C@H]3C(=O)NC3CCCCC3)c2[nH]c1=O", "viability": "70.4%"}
{"SMILES": "Cl.Cl.NC1(c2ccc(-c3nc4ccn5c(=O)[nH]nc5c4cc3-c3ccccc3)cc2)CCC1", "viability": "88.7% and 88.2%"}
{"SMILES": "CCC(=N\\O)/C(C)=C/c1ccc(F)cc1", "viability": "101% and 108%"}
